Published values from different studies.
A part holds a random share of what one study measured. Changes are numbered by the printed parent chain.

Study 1 — method: RNA Bind-n-Seq; form: RNA; matrix: in vitro; tested at: 200 nM; setting: whole 134-nt RNA, ends assumed; with: 150 mM LiCl; reference: input library; reading: higher = stronger binding; all molecules: 7-deaza-guanosine replaces G
Target: Ras GTPase-activating protein-binding protein 1, full length (G3BP1, Homo sapiens, UniProt Q13283)
UniProt Q13283, sequence (whole entry, looked up): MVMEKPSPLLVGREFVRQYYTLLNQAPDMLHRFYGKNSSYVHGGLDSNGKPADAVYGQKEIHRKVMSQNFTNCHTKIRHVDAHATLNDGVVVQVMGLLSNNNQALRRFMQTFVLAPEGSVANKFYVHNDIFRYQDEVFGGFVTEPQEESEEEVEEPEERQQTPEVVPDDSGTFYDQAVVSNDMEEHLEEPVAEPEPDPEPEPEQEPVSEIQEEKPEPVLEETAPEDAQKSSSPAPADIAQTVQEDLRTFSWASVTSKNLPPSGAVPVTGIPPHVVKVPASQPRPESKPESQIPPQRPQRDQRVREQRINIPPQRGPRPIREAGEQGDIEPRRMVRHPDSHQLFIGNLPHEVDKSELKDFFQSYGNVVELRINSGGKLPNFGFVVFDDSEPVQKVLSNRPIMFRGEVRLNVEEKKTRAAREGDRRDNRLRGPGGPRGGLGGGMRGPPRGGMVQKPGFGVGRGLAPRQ
Shared flanks, not repeated: GGGAGUUCUACAGUCCGACGAUC … UGGAAUUCUCGGGUGUCAAGG
| Oligonucleotide | log2 enrichment |
| --- | --- |
| GCAGGAAGUAAAAACAAAUGGAAAUGCUUCGGAUAGUGGCAGGGGUGGGCGUUGCUAAGGAAAGGGUGGGAUGGGAGUGGGUAAAGAGUU | 0.206 |
| CACAGACAACACGCACCCACACAAACACAGAGGGAAGGGGUUGGGAUGGGGACAGGGUGCACAGCAGGGCGGGGUAGGACCCCAGCCCCU | -0.331 |
| UGCUGGAGGCAAAAAAUGCCAGCCUGGCGUCGUCCAACAACGACUUGCAGGUGGCCGAGGAGCAGUACCAGAGGCUUAUGGCCAAGGUAG | -1.86 |
| UCCUGUGCUACACAUCGUAUGUACCGAAUCGGGAAAGGGUUUUUUUGGGAAAAAAAGGGAAAGUAUUAUGUUACGCCGUUCGGAUCUGCA | -0.434 |
| AAGUCCUGUGCUACACAUCGUAUGUACCGAAUCGGGGAAAGGGGAAAGGAAAGGGGAAAGUAUUAUGUUACGCCGUUCGGAUCUGCACUU | 0.359 |
| CAAGUCCUGUGCUACACAUCGUAUGUACCGAAUCGGAAAGGAAAGGGGAAAGGGGAAAGUAUUAUGUUACGCCGUUCGGAUCUGCACUUC | 0.0793 |

Study 2 — method: protein-binding microarray; form: double-stranded DNA, one strand shown; matrix: in vitro; tested at: 2200 nM top; setting: 60-bp whole probe; with: salmon DNA 0.4 mg/ml; reference: random background probes; reading: higher = stronger binding; shared flanks, not repeated: GCCTAGCAC … GTCTTGATTCGCTTGACGCTGCTG
Target: Interferon regulatory factor 7, full length, phosphomimetic (IRF7, Homo sapiens, UniProt Q92985, residues 1-503, S471D/S472D/S475D/S476D/S477D/S483D/S484D/S487D)
UniProt Q92985, sequence (whole entry, unmodified, looked up): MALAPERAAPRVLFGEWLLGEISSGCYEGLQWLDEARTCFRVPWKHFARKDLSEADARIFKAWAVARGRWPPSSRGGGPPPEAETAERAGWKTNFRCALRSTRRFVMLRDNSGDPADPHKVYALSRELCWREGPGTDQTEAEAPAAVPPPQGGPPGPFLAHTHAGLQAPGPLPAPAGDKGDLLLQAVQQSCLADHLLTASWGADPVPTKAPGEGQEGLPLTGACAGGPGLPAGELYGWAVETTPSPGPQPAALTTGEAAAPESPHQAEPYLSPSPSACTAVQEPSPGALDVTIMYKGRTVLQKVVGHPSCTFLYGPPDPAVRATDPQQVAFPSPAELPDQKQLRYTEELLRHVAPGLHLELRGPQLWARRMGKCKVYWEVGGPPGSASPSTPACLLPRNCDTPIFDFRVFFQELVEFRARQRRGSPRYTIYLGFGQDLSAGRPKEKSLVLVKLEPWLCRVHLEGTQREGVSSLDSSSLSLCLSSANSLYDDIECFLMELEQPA
| Oligonucleotide | fitted relative affinity [z-score] |
| --- | --- |
| TTAGTACTGCTACTGCTTTAGTGCTAG | 0.523 |
| TTAGGTATCATTCTCCTTTAGTGCTAG | 0.972 |
| GACGGTTTCGACTTTCGGGGCGTGCTA | 8.19 |
| TTAGGTATCGACTTTCGGTTGGTGCTA | 7.88 |
| GACGACATCGGGTTTCGAGACGTGCTA | 1.24 |
| GACGGTTTCGCCTTTCGGGACGTGCTA | 6.62 |
| TCAAATATGAGACTGGGACTGTGCTAG | -0.501 |
| GACGGTCTCGGTACCGGGACGTGCTAG | -0.304 |
| TTAGATCACAGTCTCGATTAGTGCTAG | 0.477 |
| CTTGCTTTGTGCCTAGCCTTGTGCTAG | 0.649 |
| TCAATTCTCAGCCCTGCGACTGTGCTA | 0.476 |
| TTAGGTTTAGACTATCGGTTAGTGCTA | 0.0695 |
| TCATCCTTCTGACATCAAACTGTGCTA | 1.47 |
| GGCGGTTTCGGGTTTCGGGACGTGCTA | 9.21 |

Study 3 — method: RNA Bind-n-Seq; form: RNA; matrix: in vitro; tested at: 365 nM; reference: no-protein control; reading: higher = stronger binding
Target: RNA binding protein fox-1 homolog 2, RRM domain, GST-SBP tag (RBFOX2, Homo sapiens, UniProt O43251-10, residues 100-194)
Setting: natural RNA segment, single round, ends assumed
Shared flanks, not repeated: GGGAGUUCUACAGUCCGACGAUC … UGGAAUUCUCGGGUGCCAA
Residues (chain): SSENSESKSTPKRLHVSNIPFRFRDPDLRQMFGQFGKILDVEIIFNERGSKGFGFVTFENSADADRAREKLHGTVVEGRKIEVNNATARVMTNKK
| Oligonucleotide | RBNS enrichment (R) |
| --- | --- |
| GAAAUUAAAAGGUAUAUUCUUAAGAUAUAUUAUAUUUUGAUGCUAAUUCUGUUCUGGGGAGCAUCUUGUAUUGUCACUGUUUUGUACUAAAUCUUCAAAUAUUGUCUACU | 0.482 |
| CCUCUUCACUUCCCCGGCACCCUUGUAUCCCCACAGCAGUACUGAGGAGCACGGACGCCUCUGUGAGGCAUGGGAAGGUGGGAUUGUUGAACUAAUAAACGUUAAUCUGA | 0.4 |
| AAUAUCAUAUGGGAAAUGUCAUAGUUAAAAACGUACAGCCAGGCCCGUGUGCUGUUAAUAGUGUGAAAUUGUCAUGUUAAAAAAAAAAACAGGAACCAAAUGUGACCUUG | 0.418 |
| AGCUUGAAUGGGCUGUCGGGGGACACUGGAAGGGAGUAAGCAGCUUUUUGAAAAUGUUAAUACAUUACUCUGCUAAUAUGCUGACCUGCACUAAUGCACCCCUGUGAGGG | 0.271 |
| GAGUCCCGGCUUUUGGAGUCCCAGCACACUUGAACUUGGAUUUGCCAUUCAGUAUUAAUAGAUCAUGAUUUCACUAAUCCAUCACAUUAUAGCACCAUGAGAGCUACAGU | 0.535 |
| GGGGAGGGGUUUGGGUCCUCACACUGAGAGCUUAUACCCAGUUGGAGCCCAAGAAGAGCUAGACUGACCCUGUAAACUUAGGGUUCCAUUUGGUCUUAACACUAUGGGCU | 0.529 |
| UAACCCAAACUCAGUGCAUUUUUUAAAAAUAGUUAAAAAUACAGGACAAGAACACUUGAACACACAGAACGGAGACUAUGCCUAGUGUAGGUUUUGCAGUUAAUGGCCUG | 0.744 |

Study 4 — target: CCNB1, cyclin fold, Cln2 fusion (human); method: yeast growth competition, sequencing; matrix: yeast; setting: weak parent motif; reference: not given; reading: higher = stronger binding
Parent: WEE1 docking peptide (human); HKTFRKLRLFDTP
| Variant | normalised enrichment score |
| --- | --- |
| HKTFRQLRLFDTP [K6Q] | 0.0871 |
| HKTFRKMRLFDTP [L7M] | -0.225 |
| HKTVRKLRLFDTP [F4V] | 0.681 |
| FKTFRKLRLFDTP [H1F] | -0.426 |
| HKTFRKLELFDTP [R8E] | 0.628 |
| HKTFRYLRLFDTP [K6Y] | 0.742 |
| HKTFRKSRLFDTP [L7S] | 0.652 |
| PKTFRKLRLFDTP [H1P] | 0.737 |
| HKTFRKIRLFDTP [L7I] | 0.975 |
| HKTFRLLRLFDTP [K6L] | -0.914 |
| HKTFRKLRLADTP [F10A] | 1 |
| HATFRKLRLFDTP [K2A] | -0.105 |

Study 5 — method: universal PBM; form: double-stranded DNA, one strand shown; matrix: in vitro; tested at: not given; reading: higher = stronger binding
Target: Sal-like protein 4, full length isoform B (SALL4, Homo sapiens, UniProt Q9UJQ4-2, residues 1-616)
Setting: 8-mer, flanks averaged, mean of replicates
Residues (chain): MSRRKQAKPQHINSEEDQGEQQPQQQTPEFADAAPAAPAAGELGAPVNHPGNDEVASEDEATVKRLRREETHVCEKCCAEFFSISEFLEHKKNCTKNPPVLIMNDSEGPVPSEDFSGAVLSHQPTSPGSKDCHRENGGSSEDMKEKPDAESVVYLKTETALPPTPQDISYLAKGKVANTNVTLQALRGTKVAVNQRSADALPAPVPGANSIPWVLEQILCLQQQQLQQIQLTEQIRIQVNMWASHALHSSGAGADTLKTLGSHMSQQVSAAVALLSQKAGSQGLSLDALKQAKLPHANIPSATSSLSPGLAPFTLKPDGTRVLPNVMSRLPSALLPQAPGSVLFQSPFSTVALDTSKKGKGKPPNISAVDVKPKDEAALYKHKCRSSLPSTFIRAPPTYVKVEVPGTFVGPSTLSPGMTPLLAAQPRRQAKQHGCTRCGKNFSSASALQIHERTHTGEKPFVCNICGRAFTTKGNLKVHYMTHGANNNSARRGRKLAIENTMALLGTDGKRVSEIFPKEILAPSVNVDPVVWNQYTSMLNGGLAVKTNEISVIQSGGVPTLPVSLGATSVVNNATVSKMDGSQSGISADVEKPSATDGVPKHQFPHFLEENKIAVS
| Oligonucleotide | E-score |
| --- | --- |
| CTCCACAG | -0.184 |
| AGTCGTTA | 0.0276 |
| AAACCACA | 0.113 |
| TGTCATAA | 0.346 |
| CACAACCA | -0.0307 |
| GAACTGGA | -0.0321 |
| CGTATCTA | -0.0102 |
| CTGCGCAA | -0.0893 |
| GCGTGTGA | -0.0358 |
| CTAAAATA | 0.259 |
| GCGGAGTA | -0.133 |
| AGGATACC | -0.163 |
| GGACTCCC | -0.33 |
| GCTTTAAA | 0.00422 |

Study 6 — method: protein binding microarray; form: double-stranded DNA, one strand shown; matrix: in vitro; tested at: not given; reference: not given; reading: higher = stronger binding
Target: Histone acetyltransferase KAT6A, winged helix 1, GST fusion (KAT6A, Homo sapiens, UniProt Q92794, residues 1-85)
Setting: 8-mer, flanks averaged, mean of 2 arrays, mostly near background
Construct (chain): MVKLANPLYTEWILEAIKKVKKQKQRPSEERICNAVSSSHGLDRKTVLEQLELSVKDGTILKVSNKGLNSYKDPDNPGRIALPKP
| Oligonucleotide | E-score |
| --- | --- |
| AGTCCCAT | -0.0863 |
| GAGATGGC | -0.172 |
| AACCCAAT | -0.178 |
| ACCCAAAC | -0.227 |
| CTATGGGC | -0.149 |
| CCATTAAG | -0.0772 |
| CATGCACA | -0.172 |
| GAAAACTC | -0.0395 |
| CTTTGTTA | -0.0278 |
| CTGAAGTC | -0.074 |
| ACGCTTGA | 0.0993 |

Study 7 — method: DHFR PCA, dose-response; matrix: yeast; setting: Hill fit, mean, not affinity; with: (+)-ABA, dose series; reading: lower = more sensitive
Target: ABI1, truncated, D143A, DHFR fusion (Arabidopsis thaliana, UniProt P49597)
Parent: PYL1, truncated, DHFR fusion (Arabidopsis thaliana, UniProt Q8VZS8); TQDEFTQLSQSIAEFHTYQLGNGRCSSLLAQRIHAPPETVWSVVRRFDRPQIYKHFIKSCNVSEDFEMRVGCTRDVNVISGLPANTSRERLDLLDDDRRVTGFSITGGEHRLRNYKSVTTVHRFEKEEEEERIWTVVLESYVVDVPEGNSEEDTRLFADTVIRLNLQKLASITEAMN
| Variant | ABA EC50 [µM] |
| --- | --- |
| E4N | 5.48 |
| I33A | 121 |
| L20I | 5.46 |
| W134C | 0.986 |
| V118M | 6.98 |
| M176K | 3.11 |
| C60V | 6.03 |
| V100W | 344 |
| F66C | 4.87 |
| N114H | 8.37 |
| F15D | 66.3 |
| V137A | 157 |
| V145R | 59.7 |
| N114Q | 89.8 |
| R99L | 3.18 |
| S11C | 1.78 |
| I57V | 2.2 |

For quick reference, copied from above (study 4):
| Variant | normalised enrichment score |
| --- | --- |
| FKTFRKLRLFDTP [H1F] | -0.426 |
| HKTFRKLELFDTP [R8E] | 0.628 |
| HKTFRYLRLFDTP [K6Y] | 0.742 |
| HKTFRKSRLFDTP [L7S] | 0.652 |
| PKTFRKLRLFDTP [H1P] | 0.737 |
| HKTFRKIRLFDTP [L7I] | 0.975 |
| HKTFRLLRLFDTP [K6L] | -0.914 |
| HKTFRKLRLADTP [F10A] | 1 |
